# Earlier results, collected from citations in different studies.
# Protocols differ between the studies behind these lines. ± gives the spread as reported.
# Slc6a3: Sodium-dependent dopamine transporter (Slc6a3, Rattus norvegicus, UniProt P23977)
Molecule,target,assay,system,conditions,scale,measurement,result
N[C@@H](CCC(=O)O)C(=O)O,glutamine synthetase human,"substrate, radiometric",,,,Km,3 ± 1.2 mM
COC1C2OP(O)(=S)OCC2OC1n1c(Sc2ccc(Cl)cc2)nc2c(N)ncnc21 (centres unmarked),PDE5,"cyclic nucleotide hydrolysis, substrate or inhibitor, isothermal titration calorimetry",,,,Km or Ki,0.4 µM
C[C@]12CCC(=O)CC1=CC[C@@H]1[C@@H]2CC[C@]2(C)C(=O)CC[C@@H]12,ketosteroid isomerase Y30F/Y55F,substrate,,"pH 7.0, 3.3 % methanol",,kcat,10700 ± 400 s⁻¹
Nc1ncnc2c1ncn2[C@@H]1O[C@H](COP(=O)(O)OP(=O)(O)OP(=O)(O)O)[C@@H](O)[C@H]1O,HCV NS3 helicase,NTP hydrolysis,,no RNA or metal ions,,kcat,~0.3 s⁻¹
N[C@@H](CO)C(=O)O,"serine hydroxymethyltransferase, Plasmodium chabaudi",substrate,,,,Km,1.1 mM
Cc1cc(Nc2ncc(Cl)c(Nc3ccccc3S(=O)(=O)C(C)C)n2)c(OC(C)C)cc1C1CCNCC1,IGF-1 receptor,,,,baseline: IGF-1R IC50 over ALK IC50,selectivity ratio,50
CC(=O)SCC[N+](C)(C)C.[I-],acetylcholinesterase (Schizaphis graminum),substrate,purified enzyme,,,onset of substrate inhibition,~20 mM
Nc1ncnc2c1nc(Br)n2C1OC2COP(O)(=S)OC2C1O (centres unmarked),PDE1C,"cyclic nucleotide hydrolysis, substrate or inhibitor, isothermal titration calorimetry",,,,Km or Ki,37.7 µM
C[N+](C)(C)CCOC(N)=O,acetylcholinesterase,,,"concentration not given, with: acetylthiocholine reporter substrate",,Km,2.8 ± 0.2 mM
COc1ccc(CN(C(=O)[C@@H](N)Cc2c(C)cc(C(N)=O)cc2C)[C@@H](C)c2nc(-c3ccccc3)c[nH]2)cc1C(=O)O,OATP1B1,"transport, inhibitor",,162-fold plasma level at 100 mg,,inhibition,32.6%
CC(C)(C)OC(=O)c1cc2c(cn1)[nH]c1ccccc12,human GABAA α1β3γ2 receptor,"modulator, two-electrode voltage clamp",Xenopus oocytes,"saturating, with: GABA EC50",baseline: GABA response,efficacy,96 ± 7%
N=C(N)NCCC[C@@H]1NC(=O)[C@H](CCCNC(=N)N)NC(=O)[C@H](NC(=O)[C@H](Cc2ccccc2)NC(=O)CNC(=O)CNC(=O)[C@H](Cc2ccc(O)cc2)NCc2ccccc2)CC(=O)NC[C@@H](C(=O)N[C@@H](CCCNC(=N)N)C(=O)N2CCC[C@H]2C(=O)N[C@@H](CCCCN)C(N)=O)NC1=O,"Oprk1 (Rattus norvegicus, UniProt P34975)",antagonist,"animal, systemic",dose not given,,duration of action,12 to 18 h
O=c1c2nc(Br)n([C@@H]3O[C@@H]4CO[P@@](O)(=S)O[C@H]4[C@H]3O)c2nc2[nH]c(-c3ccccc3)cn12,PDE10,"cyclic nucleotide hydrolysis, substrate or inhibitor, isothermal titration calorimetry",,,,Km or Ki,4.98 µM
C=CCN(CC=C)CCc1c[nH]c2ccccc12,"HTR2B (Homo sapiens, UniProt P41595)","binding, [3H]LSD displacement",,,,Ki,61 nM
CCCC(C(=O)c1ccc2c(c1)OCO2)N1CCCC1 (centres unmarked),Slc6a3,"transporter-mediated release, substrate",rat brain synaptosomes,,,EC50,inactive
O=[PH](O)O,orotidine 5'-phosphate decarboxylase wild type,"EO decarboxylation, activator",,25 °C,,kcat/Km/Kd,12000 M⁻² s⁻¹
O[C@@H]1[C@H](O)[C@@H]2C[C@@H]2[C@H]1n1cnc2c(NCCc3ccccc3)nc(C#Cc3ccccc3)nc21,"ADORA2A (Homo sapiens, UniProt P29274)",radioligand binding,,10 µM,,inhibition,22 ± 5%
C=CCN(CC=C)CCc1c[nH]c2ccc(F)cc12,"Tmem97 (Rattus norvegicus, UniProt Q5U3Y7)",,,,,Ki,303 nM
tetrahydrofolate,"serine hydroxymethyltransferase, human",substrate,,,,Km,0.02 mM
CN1C/C(=C\c2ccc(Cl)cc2Cl)C/C(=C/c2ccc(Cl)cc2Cl)C1,Slc6a3,inhibitor,,,,Ki,6900 nM
O=[P@]1(S)OC[C@H]2O[C@@H](n3cnc4cc(Cl)c(Cl)cc43)[C@H](O)[C@@H]2O1,PDE4D,"cyclic nucleotide hydrolysis, substrate or inhibitor, isothermal titration calorimetry",,,,Km or Ki,18.8 µM
O=[N+]([O-])[O-].[Ag+],"Na+/K+-ATPase, gill",enzyme activity,"rainbow trout, freshwater","10 µg/L, 48 h",,inhibition,85%
CN(C)C/C=C/C(=O)Nc1cccc(C(=O)Nc2ccc(Nc3nccc(-c4cccnc4)n3)cc2)c1,IRAK1 kinase (via Pellino E3 ligase activity),"Pellino E3 ligase activity, inhibitor",cells,,,IC50,1 to 10 µM
